{"data": "Experimental data pooled from the literature", "note": "Numbered parts are unrelated; each lists some results of a single study.", "UniProt Q92918, sequence (whole entry, looked up)": "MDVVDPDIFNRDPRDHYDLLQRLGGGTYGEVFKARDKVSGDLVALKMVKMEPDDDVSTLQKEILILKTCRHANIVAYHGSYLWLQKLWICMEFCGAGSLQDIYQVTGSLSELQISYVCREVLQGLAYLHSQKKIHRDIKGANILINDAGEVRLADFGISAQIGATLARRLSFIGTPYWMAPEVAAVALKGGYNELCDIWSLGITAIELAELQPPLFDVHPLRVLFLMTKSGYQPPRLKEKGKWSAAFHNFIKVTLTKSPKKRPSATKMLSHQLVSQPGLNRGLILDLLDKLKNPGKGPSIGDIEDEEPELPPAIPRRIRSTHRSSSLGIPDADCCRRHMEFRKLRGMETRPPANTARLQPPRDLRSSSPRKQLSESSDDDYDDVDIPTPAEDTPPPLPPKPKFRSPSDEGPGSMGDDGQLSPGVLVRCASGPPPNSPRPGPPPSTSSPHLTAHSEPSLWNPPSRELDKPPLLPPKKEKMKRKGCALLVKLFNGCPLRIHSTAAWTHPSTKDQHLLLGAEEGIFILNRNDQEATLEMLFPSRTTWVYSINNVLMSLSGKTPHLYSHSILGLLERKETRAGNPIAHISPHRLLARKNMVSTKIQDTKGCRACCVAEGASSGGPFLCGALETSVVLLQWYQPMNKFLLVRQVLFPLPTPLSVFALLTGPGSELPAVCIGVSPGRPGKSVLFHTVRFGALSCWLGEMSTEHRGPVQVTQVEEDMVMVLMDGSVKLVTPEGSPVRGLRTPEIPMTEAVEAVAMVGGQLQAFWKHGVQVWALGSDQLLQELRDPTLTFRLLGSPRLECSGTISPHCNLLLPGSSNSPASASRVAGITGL", "UniProt Q05655, sequence (whole entry, looked up)": "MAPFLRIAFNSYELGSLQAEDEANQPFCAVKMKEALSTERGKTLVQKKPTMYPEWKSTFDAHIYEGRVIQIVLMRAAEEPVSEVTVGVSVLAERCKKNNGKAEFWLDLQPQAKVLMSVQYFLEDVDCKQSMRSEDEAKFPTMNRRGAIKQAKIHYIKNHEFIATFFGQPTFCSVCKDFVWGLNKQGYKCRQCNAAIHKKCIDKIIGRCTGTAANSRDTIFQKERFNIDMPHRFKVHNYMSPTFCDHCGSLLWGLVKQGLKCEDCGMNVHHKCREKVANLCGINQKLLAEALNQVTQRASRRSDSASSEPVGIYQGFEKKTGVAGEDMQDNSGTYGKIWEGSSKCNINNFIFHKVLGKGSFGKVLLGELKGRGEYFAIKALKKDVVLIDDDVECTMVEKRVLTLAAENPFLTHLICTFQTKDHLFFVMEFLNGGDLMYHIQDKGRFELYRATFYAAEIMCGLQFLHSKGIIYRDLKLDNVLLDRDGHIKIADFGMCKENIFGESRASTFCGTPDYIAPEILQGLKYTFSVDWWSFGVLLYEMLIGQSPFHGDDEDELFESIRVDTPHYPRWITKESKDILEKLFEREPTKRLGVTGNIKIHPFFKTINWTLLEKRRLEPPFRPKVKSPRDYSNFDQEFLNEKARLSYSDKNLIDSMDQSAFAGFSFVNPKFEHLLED", "UniProt P00519, sequence (whole entry, unmodified, looked up)": "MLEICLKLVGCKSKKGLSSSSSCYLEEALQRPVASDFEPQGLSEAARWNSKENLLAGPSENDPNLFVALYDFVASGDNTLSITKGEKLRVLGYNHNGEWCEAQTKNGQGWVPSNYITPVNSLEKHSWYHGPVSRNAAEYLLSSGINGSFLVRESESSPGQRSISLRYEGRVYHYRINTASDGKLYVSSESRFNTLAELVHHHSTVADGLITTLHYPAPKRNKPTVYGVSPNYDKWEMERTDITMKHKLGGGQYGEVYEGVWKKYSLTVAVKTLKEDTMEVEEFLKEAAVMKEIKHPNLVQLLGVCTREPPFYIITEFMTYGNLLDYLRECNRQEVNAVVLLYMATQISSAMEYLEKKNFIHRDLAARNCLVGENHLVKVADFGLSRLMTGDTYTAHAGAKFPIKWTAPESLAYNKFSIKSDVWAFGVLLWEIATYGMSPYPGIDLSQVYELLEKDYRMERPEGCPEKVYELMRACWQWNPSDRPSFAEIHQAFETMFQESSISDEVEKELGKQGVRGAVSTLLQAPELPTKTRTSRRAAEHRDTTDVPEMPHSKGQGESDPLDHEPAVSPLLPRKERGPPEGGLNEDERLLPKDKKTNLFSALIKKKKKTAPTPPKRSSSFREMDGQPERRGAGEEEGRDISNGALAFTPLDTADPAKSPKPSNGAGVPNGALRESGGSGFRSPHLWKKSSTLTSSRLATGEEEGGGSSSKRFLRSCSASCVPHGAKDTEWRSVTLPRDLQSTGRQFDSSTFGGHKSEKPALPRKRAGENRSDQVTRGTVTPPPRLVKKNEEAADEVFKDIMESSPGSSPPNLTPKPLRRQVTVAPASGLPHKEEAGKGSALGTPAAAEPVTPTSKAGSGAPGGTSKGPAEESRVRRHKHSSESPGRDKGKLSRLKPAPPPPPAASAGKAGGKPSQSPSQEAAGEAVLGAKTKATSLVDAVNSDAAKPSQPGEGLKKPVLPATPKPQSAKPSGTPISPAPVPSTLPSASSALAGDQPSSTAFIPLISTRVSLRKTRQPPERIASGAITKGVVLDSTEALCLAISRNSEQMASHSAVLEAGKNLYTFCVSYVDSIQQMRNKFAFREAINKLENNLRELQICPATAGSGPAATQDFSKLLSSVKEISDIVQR", "UniProt O14976, sequence (whole entry, looked up)": "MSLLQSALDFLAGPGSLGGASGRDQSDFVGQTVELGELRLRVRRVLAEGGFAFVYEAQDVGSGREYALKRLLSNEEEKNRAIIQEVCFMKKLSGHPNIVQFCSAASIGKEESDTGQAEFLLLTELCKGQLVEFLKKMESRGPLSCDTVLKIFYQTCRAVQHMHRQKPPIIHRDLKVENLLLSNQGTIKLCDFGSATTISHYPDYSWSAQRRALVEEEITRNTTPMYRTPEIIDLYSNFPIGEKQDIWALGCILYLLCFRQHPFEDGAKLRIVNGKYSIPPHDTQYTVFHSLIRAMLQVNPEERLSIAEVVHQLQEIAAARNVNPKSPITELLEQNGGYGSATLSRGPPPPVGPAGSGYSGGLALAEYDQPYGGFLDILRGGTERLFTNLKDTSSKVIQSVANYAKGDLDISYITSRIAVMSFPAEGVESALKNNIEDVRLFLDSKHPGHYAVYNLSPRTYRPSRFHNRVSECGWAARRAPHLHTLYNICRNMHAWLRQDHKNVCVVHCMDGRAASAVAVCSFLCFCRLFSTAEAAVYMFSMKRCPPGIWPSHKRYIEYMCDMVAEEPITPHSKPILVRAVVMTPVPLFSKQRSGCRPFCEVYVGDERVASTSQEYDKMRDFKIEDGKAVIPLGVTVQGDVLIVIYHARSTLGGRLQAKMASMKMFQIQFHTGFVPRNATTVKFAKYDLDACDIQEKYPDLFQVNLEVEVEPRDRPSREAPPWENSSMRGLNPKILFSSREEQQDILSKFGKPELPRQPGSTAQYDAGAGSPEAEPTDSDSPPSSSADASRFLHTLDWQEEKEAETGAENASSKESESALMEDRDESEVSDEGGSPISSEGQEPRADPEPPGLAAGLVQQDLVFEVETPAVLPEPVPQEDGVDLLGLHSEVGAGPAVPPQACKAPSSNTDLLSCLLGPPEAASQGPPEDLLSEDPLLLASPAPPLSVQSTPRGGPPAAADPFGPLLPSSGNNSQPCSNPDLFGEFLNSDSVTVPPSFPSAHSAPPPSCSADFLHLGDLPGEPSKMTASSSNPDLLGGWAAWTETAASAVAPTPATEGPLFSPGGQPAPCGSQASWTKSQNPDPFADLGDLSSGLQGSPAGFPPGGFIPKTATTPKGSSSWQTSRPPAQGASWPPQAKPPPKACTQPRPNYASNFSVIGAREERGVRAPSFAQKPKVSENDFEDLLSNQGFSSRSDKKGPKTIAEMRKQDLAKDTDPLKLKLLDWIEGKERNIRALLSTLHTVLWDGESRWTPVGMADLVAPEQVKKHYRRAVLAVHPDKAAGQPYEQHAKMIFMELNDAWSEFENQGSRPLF"}
{"data": "Block 1", "target": "Activin receptor type-1B (ACVR1B, Homo sapiens, UniProt P36896)", "effect on": "enzyme activity", "action": "inhibitor", "tested at": "0.5 µM", "baseline": "control", "UniProt P36896, sequence (whole entry, looked up)": "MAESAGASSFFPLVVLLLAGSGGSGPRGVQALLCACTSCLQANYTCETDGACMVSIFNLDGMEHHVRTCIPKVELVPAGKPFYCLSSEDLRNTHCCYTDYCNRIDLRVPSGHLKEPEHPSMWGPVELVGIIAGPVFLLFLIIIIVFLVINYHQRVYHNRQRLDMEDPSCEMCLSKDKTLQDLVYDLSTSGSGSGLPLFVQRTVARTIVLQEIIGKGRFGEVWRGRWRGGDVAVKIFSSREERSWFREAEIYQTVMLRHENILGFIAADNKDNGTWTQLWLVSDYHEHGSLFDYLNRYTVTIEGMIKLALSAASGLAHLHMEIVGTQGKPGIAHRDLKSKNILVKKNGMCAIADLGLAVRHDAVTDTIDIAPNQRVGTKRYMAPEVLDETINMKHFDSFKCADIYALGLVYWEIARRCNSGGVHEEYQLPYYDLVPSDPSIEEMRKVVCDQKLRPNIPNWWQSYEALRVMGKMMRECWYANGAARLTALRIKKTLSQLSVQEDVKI"}
{"SMILES": "O=S(=O)(c1cccc2cnccc12)N1CCCNCC1", "remaining activity [%]": 100}
{"SMILES": "CO[C@H]1C[C@@H]2CC[C@@H](C)[C@@](O)(O2)C(=O)C(=O)N2CCCC[C@H]2C(=O)O[C@H]([C@H](C)C[C@@H]2CC[C@@H](O)[C@H](OC)C2)CC(=O)[C@H](C)/C=C(\\C)[C@@H](O)[C@@H](OC)C(=O)[C@H](C)C[C@H](C)/C=C/C=C/C=C/1C", "remaining activity [%]": 97.6}
{"SMILES": "O=c1c2ccccc2[nH]c(=S)n1CCN1CCC(=C(c2ccc(F)cc2)c2ccc(F)cc2)CC1", "remaining activity [%]": 103}
{"SMILES": "CC(C)[C@H](CO)Nc1nc(Nc2cc(N)cc(Cl)c2)c2ncn(C(C)C)c2n1", "remaining activity [%]": 107}
{"SMILES": "Cc1nc(-c2ccccc2)c(-c2ccncc2)o1", "remaining activity [%]": 99.3}
{"SMILES": "Cc1ccc(Nc2nccc(N(C)c3ccc4c(C)n(C)nc4c3)n2)cc1S(N)(=O)=O", "remaining activity [%]": 100}
{"SMILES": "O=C1NC(=O)C(c2cn(CCCn3ccnc3)c3ccccc23)=C1Nc1ccccc1", "remaining activity [%]": 96.2}
{"SMILES": "CCOC(=O)c1c(C)[nH]c(/C=C2\\C(=O)Nc3ccccc32)c1C", "remaining activity [%]": 96.6}
{"SMILES": "COc1ccc(CNC(=O)Nc2ncc([N+](=O)[O-])s2)cc1", "remaining activity [%]": 102}
{"SMILES": "Cn1sc(=O)n(Cc2ccccc2)c1=O", "remaining activity [%]": 103}
{"SMILES": "COc1cc2nccc(Oc3ccc(NC(=S)NC(=O)c4ccccc4C)cc3)c2cc1OC", "remaining activity [%]": 92.1}
{"SMILES": "C#Cc1cccc(Nc2ncnc3cc(OCCOC)c(OCCOC)cc23)c1", "remaining activity [%]": 101}
{"SMILES": "COc1ccc(C(=O)Nc2sc3c(c2C(N)=O)CCCC3)cc1OC", "remaining activity [%]": 101}
{"SMILES": "N#CC(C#N)=C(N)/C(C#N)=C/c1ccc(O)cc1", "remaining activity [%]": 101}
{"SMILES": "O=C(O)c1ccc2c3c1cccc3c(=O)n1c3ccccc3nc21", "remaining activity [%]": 93.5}
{"data": "Block 2", "Structure (SMILES)": "C[C@@H]1CN(c2cc(-c3n[nH]c4ccc(OC5(C)CC5)cc34)ncn2)C[C@H](C)O1", "tested at": "0.1 µM"}
{"target": "PRKCD (Homo sapiens, UniProt Q05655)", "effect on": "cell-free assay", "technique": "competition with immobilised ligand", "remaining binding [%]": 100}
{"target": "MAP4K1 (Homo sapiens, UniProt Q92918)", "effect on": "cell-free assay", "technique": "competition with immobilised ligand", "remaining binding [%]": 84}
{"target": "GAK (Homo sapiens, UniProt O14976)", "effect on": "cell-free assay", "technique": "competition with immobilised ligand", "remaining binding [%]": 86}
{"target": "Tyrosine-protein kinase ABL1, phosphorylated (ABL1, Homo sapiens, UniProt P00519, F317I)", "effect on": "binding", "remaining binding [%]": 80}
{"target": "CAMK2B (Homo sapiens, UniProt Q13554)", "effect on": "cell-free assay", "technique": "competition with immobilised ligand", "remaining binding [%]": 100}
{"target": "DYRK1B (Homo sapiens, UniProt Q9Y463)", "effect on": "cell-free assay", "technique": "competition with immobilised ligand", "remaining binding [%]": 93}
{"target": "CAMKK2 (Homo sapiens, UniProt Q96RR4)", "effect on": "cell-free assay", "technique": "competition with immobilised ligand", "remaining binding [%]": 100}
{"data": "Block 3", "organism": "Sarcocystis neurona", "effect on": "parasite activity", "tested at": "10 µM", "time": "96 h"}
{"Compound": "CC(C)(C)NC(=O)[C@@H]1C[C@@H]2CCCC[C@@H]2CN1C[C@@H](O)[C@H](Cc1ccccc1)NC(=O)[C@H](CC(N)=O)NC(=O)c1ccc2ccccc2n1", "activity class": "inactive"}
{"Compound": "COc1ccc(CC2c3cc(OC)c(OC)cc3CC[N+]2(C)CCC(=O)OCCCCCOC(=O)CC[N+]2(C)CCc3cc(OC)c(OC)cc3C2Cc2ccc(OC)c(OC)c2)cc1OC (stereo not shown)", "activity class": "inactive"}
{"Compound": "CC(C)[N+](C)(CCOC(=O)C1c2ccccc2Oc2ccccc21)C(C)C", "activity class": "inactive"}
{"Compound": "CCN1CCN(C(=O)N[C@@H](C(=O)N[C@@H]2C(=O)N3[C@@H]2SC(C)(C)[C@@H]3C(=O)O)c2ccccc2)C(=O)C1=O", "activity class": "inactive"}
{"data": "Block 4", "Structure (SMILES)": "CC(C)n1cnc(-c2ccc(F)cc2)c1-c1ncc(C(=O)Nc2ccc(N3CCN(C)CC3)cc2)[nH]1", "technique": "phase 2a trial", "host": "idiopathic pulmonary fibrosis patients"}
{"dose": "60 mg once daily", "setting": "adverse event grade 4", "patients with abdominal discomfort": "0%"}
{"dose": "dose not given", "setting": "adverse event grade 4, all dose arms pooled", "patients with abdominal discomfort": "0%"}
{"dose": "60 mg once daily", "setting": "adverse event grade 1", "patients with abdominal discomfort": "0%"}
{"dose": "30 mg once daily", "setting": "adverse event grade 5", "patients with abdominal discomfort": "0%"}
{"dose": "60 mg once daily", "setting": "adverse event grade 5", "patients with abdominal discomfort": "0%"}
{"note": "For quick reference, copied from above (block 2):"}
{"target": "PRKCD (Homo sapiens, UniProt Q05655)", "effect on": "cell-free assay", "technique": "competition with immobilised ligand", "remaining binding [%]": 100}
{"target": "CAMK2B (Homo sapiens, UniProt Q13554)", "effect on": "cell-free assay", "technique": "competition with immobilised ligand", "remaining binding [%]": 100}
{"target": "MAP4K1 (Homo sapiens, UniProt Q92918)", "effect on": "cell-free assay", "technique": "competition with immobilised ligand", "remaining binding [%]": 84}
{"target": "Tyrosine-protein kinase ABL1, phosphorylated (ABL1, Homo sapiens, UniProt P00519, F317I)", "effect on": "binding", "remaining binding [%]": 80}
